Results gathered from unrelated publications.
Parts stem from different laboratories: compare values within a part only.

Sample 1 — method: RNA Bind-n-Seq; form: RNA; matrix: in vitro; tested at: 365 nM; reference: no-protein control; reading: higher = stronger binding
Target: RNA binding protein fox-1 homolog 2, RRM domain, GST-SBP tag (RBFOX2, Homo sapiens, UniProt O43251-10, residues 100-194)
Notes: natural RNA segment, single round, ends assumed
Target sequence (chain): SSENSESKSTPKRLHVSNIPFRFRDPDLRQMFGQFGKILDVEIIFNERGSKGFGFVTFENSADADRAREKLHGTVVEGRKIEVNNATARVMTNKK
Under “RBNS enrichment (R)”, `GGGAGUUCUACAGUCCGACGAUCCUGUGGGAGGUAAACUUAAGCUGAAGGUGGCGGACUCUACUGUCGCAGGCCACAGCAGACAGGGUGGGAGCCCUGUACAGCUUGAUAACCCUUAAUAAAGAAGGGACUUUUGGAAUUCUCGGGUGCCAA` is recorded as 0.251.
For `GGGAGUUCUACAGUCCGACGAUCUUAUUUUAAAUGCAAUCAGGUAGUGUUGCUUUUUACAGCAUAAUAAAUAUAUGUAUCAAAAAAAAAACUGUGUGGAAAAAAUGAAUUUUCUUAAAACAAUUAAGAGCCAGUGGAAUUCUCGGGUGCCAA`, “RBNS enrichment (R)” read 0.942.
Under “RBNS enrichment (R)”, `GGGAGUUCUACAGUCCGACGAUCCAUGGUACGUCCCACCCUGUCCCCAGAUCCCCUAUUCCCUCCACAAUAACAGAAACACUCCCAGGGACUCUGGGGAGAGGCUGAGGACAAAUACCUGCUGUCACUCCAGAUGGAAUUCUCGGGUGCCAA` is recorded as 0.703.

Sample 2 — method: protein-binding microarray; form: double-stranded DNA, one strand shown; matrix: in vitro; tested at: 250 nM; notes: 60-bp whole probe; together with: salmon DNA 0.4 mg/ml; reference: random background probes; reading: higher = stronger binding
Target: Interferon regulatory factor 5, full length, phosphomimetic (IRF5, Homo sapiens, UniProt Q13568-2, residues 1-514, K96S/S451D/S453D/S456D/S462D)
With `GCCTAGCACGGAAATTCCAAGTTCATGGGGTGCTAGGTCTTGATTCGCTTGACGCTGCTG` the log fluorescence was 0.0675 z-score.
For `GCCTAGCACGACGAAATCAGACTGGAGACGTGCTAGGTCTTGATTCGCTTGACGCTGCTG`, the log fluorescence was 0.629 z-score.
`GCCTAGCACAACGGACTGGACACTGGGGACGTGCTAGTCTTGATTCGCTTGACGCTGCTG` has a log fluorescence of -0.387 z-score.
`GCCTAGCACGACCGTATCGACTATCGGGACGTGCTAGTCTTGATTCGCTTGACGCTGCTG` has a log fluorescence of 3.93 z-score.

Further values, each from its own experiment
UNK zinc fingers 1-6, GST-SBP tag: RING finger protein unkempt homolog, zinc fingers 1-6, GST-SBP tag (UNK, Homo sapiens, UniProt Q9C0B0, residues 30-357)
Sequence of UniProt Q9C0B0 (30-357, looked up): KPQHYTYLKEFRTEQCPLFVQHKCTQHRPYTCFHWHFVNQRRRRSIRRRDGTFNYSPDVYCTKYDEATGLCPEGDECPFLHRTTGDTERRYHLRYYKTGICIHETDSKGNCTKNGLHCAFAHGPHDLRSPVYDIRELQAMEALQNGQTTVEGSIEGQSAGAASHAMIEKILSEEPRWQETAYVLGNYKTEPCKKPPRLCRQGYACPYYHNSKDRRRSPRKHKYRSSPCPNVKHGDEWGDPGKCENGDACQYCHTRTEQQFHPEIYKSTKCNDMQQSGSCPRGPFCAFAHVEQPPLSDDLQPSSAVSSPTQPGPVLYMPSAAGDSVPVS
The bound/input enrichment of `GGGAGUUCUACAGUCCGACGAUCGGUGAAAAAUCAAAUGCCAAAAUUAAAGAUGAAGAUCAUAAUCCAGCAUUUGAAAACUCAGACUGCACACUGAAGAAGAUGGAUAAAGAGGGUAAAACAUUAAAAAAACAUAAAUUAAAACAACAGAGGAUUGAGCAUCA` is reported as 0.866 ratio (UNK zinc fingers 1-6, GST-SBP tag; RNA Bind-n-Seq; RNA, in vitro; not given, RNA with constant flanks, human and mouse sites, ends assumed; reference: input RNA pool, higher = stronger binding).
`PhoQ, residues 284 288 289 292 302 303 SCEHLI` has a fold induction of 1.53 (PhoP, residues 12 14 15 18 19 LHSVQ (Escherichia coli, UniProt P23836); Sort-seq, measured: YFP reporter; E. coli; PhoQ-PhoP variant library, together with: 10 µM Mg2+; reference: high Mg2+ state, higher = stronger signaling).
`GGGAGUUCUACAGUCCGACGAUCACACCCAGUCGCCGAGUCCUGCCCUGUUCUGGCCGCCGGCCCCAACUGGACCUCGACAUCCUUAGCAGCCUCAUCAACUUGUGUGAUAGUCCUGUGUCCCCAUCUGAGGCCAGCCGAACACAACAGAGGAUUGAGCAUCA` gave a bound/input enrichment of 0.231 ratio (UNK zinc fingers 1-6, GST-SBP tag; RNA Bind-n-Seq; RNA, in vitro; not given, RNA with constant flanks, human and mouse sites, ends assumed; reference: input RNA pool, higher = stronger binding).

Repeated from above (sample 2):
For `GCCTAGCACGACGAAATCAGACTGGAGACGTGCTAGGTCTTGATTCGCTTGACGCTGCTG`, the log fluorescence was 0.629 z-score.
